Assay results pooled from the literature.
A part holds a random share of what one study measured.
Sequence of UniProt Q8IWQ3 (whole entry, looked up): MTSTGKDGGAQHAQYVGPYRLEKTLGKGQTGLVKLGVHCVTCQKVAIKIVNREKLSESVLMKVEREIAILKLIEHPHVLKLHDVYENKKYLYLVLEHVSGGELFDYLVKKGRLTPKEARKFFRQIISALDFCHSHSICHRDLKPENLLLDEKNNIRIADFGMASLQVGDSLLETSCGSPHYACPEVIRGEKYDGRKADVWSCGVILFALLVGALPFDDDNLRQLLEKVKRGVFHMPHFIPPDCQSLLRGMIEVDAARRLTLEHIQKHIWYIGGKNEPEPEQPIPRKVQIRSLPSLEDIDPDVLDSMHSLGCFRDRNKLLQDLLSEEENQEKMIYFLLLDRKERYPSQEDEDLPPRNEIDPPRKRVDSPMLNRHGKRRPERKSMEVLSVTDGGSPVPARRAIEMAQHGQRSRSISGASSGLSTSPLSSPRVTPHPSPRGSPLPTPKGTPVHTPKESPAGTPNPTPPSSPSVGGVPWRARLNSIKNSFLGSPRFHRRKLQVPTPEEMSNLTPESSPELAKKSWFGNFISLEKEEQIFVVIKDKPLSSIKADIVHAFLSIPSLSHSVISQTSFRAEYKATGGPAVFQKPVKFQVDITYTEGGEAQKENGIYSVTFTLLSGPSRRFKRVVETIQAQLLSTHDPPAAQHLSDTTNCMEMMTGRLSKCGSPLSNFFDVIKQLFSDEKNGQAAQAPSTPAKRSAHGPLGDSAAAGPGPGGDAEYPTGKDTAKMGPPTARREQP
Sequence of UniProt Q9Y6M4 (whole entry, looked up): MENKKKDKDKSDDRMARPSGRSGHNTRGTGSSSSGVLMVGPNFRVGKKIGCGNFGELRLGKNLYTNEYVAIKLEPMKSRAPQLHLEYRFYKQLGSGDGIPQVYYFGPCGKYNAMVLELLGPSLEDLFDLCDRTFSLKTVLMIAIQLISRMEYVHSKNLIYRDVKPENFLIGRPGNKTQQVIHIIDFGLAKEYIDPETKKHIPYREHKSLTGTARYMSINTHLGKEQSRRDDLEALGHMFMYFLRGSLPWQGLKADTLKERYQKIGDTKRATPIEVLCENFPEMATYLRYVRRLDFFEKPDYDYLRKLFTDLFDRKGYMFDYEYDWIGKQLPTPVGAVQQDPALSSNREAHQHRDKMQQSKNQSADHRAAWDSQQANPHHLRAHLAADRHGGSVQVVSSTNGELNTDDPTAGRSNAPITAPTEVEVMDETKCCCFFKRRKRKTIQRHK
Sequence of UniProt P00519 (whole entry, unmodified, looked up): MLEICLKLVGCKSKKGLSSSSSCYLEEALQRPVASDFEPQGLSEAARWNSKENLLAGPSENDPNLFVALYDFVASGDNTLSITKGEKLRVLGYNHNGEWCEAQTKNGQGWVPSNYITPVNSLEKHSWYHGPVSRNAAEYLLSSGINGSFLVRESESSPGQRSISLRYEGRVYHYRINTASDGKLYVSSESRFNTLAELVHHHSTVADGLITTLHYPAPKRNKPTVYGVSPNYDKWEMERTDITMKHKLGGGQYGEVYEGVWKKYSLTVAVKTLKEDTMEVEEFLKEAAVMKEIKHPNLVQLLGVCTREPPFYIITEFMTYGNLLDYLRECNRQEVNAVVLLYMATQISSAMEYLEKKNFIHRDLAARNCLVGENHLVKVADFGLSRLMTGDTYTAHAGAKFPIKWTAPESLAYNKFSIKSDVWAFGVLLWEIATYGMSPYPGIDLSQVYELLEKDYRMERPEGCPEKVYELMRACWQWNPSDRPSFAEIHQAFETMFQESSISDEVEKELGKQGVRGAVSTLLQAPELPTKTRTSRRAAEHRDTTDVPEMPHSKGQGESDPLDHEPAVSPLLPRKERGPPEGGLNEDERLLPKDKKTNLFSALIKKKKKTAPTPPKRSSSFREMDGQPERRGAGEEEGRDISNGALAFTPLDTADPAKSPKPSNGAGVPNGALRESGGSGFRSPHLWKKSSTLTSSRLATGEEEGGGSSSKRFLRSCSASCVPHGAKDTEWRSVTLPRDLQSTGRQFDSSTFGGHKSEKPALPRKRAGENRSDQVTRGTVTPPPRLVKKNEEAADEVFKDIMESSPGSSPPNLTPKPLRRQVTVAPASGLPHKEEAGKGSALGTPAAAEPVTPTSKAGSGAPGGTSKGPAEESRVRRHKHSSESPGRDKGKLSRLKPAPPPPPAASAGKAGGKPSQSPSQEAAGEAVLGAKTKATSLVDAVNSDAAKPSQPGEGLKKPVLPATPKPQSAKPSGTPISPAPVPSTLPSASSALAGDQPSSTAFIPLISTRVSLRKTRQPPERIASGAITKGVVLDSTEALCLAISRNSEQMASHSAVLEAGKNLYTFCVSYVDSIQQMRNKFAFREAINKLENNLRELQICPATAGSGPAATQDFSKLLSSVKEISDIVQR
Sequence of UniProt Q86UE8 (whole entry, looked up): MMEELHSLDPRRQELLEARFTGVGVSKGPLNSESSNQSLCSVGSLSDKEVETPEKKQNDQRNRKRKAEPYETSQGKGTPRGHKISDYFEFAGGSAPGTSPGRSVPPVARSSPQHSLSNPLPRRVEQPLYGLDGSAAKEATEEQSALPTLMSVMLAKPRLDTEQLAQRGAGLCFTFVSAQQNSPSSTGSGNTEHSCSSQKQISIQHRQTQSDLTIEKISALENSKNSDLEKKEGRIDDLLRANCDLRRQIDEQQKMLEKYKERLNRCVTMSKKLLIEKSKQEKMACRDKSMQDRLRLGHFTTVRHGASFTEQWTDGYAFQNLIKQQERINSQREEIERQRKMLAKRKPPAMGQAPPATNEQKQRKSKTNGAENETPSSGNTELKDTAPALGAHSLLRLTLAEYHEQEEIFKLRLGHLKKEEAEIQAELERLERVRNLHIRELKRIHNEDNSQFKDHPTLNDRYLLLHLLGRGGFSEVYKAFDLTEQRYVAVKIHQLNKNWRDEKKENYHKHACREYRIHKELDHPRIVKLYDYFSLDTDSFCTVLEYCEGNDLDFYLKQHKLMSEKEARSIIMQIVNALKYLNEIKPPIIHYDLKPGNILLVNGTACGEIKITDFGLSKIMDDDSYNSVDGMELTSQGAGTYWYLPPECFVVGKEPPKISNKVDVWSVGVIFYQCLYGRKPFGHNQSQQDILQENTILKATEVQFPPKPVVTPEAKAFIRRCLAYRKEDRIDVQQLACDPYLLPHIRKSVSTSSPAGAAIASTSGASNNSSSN
Sequence of UniProt Q9UM73 (whole entry, unmodified, looked up): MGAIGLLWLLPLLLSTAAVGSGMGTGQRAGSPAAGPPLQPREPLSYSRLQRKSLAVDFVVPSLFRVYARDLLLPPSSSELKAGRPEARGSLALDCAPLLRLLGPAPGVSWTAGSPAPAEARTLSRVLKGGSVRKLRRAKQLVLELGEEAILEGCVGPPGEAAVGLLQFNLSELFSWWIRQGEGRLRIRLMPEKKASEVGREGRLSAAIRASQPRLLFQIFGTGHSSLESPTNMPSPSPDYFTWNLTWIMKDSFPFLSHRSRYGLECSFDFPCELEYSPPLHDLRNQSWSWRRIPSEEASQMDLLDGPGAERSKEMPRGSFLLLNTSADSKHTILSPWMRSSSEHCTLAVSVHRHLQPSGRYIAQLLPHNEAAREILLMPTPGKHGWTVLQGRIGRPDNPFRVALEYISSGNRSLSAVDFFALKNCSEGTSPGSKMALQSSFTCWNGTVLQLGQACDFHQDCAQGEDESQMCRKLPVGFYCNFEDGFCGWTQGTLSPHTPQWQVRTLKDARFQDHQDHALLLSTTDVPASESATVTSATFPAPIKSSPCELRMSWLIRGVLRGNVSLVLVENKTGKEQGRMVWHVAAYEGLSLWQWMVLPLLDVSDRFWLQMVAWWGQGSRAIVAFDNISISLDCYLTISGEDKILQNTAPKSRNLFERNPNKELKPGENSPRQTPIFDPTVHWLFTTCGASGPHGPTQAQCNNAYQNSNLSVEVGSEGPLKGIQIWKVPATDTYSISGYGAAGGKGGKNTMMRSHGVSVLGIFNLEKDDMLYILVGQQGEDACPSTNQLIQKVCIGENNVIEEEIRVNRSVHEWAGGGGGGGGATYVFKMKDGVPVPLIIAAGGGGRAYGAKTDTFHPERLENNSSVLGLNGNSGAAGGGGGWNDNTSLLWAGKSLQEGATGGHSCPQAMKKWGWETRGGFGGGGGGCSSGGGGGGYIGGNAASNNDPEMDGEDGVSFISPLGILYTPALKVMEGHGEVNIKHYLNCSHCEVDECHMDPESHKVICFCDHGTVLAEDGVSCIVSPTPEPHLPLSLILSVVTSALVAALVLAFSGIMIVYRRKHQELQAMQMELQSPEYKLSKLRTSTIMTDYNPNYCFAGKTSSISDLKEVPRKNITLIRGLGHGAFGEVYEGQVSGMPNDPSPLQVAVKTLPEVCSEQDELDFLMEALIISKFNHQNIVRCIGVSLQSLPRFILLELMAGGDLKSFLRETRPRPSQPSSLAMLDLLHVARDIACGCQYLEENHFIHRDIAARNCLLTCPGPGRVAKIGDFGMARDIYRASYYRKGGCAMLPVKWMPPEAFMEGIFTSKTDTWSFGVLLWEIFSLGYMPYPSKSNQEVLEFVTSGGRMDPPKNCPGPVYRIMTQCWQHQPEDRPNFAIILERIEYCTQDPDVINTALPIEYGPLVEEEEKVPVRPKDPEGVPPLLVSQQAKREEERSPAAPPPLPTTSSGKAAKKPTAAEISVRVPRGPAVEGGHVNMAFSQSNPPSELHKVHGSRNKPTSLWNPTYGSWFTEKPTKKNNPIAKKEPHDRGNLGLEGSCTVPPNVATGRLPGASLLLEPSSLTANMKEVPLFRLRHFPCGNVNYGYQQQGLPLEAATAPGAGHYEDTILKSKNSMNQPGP

Sample 1
Species: mouse
Sample: microsomes or S9
Tested at: 2 µM
Time: 0.5 h
Measurement: remaining compound
Cc1c(O)ccc2c1oc1c(-c3cccnc3O)c3cnn(C(C)C)c3nc12: 39.7%
Cc1cc(-c2cc(=O)[nH]c3nc4ccccc4n23)n(C)n1: 87.4%
O=C(OC1CCc2ccccc2C1=O)c1ccccc1O (centres unmarked): 86.3%

Sample 2
Organism: Plasmodium berghei
Mode: inhibitor
Cell line: Huh-7
Strain: GFP-expressing sporozoites, liver stage
Tested at: 10 µM
Time: 24 h
Reference: untreated control
Measurement: infection rate
Clc1cccc(Cl)c1NC1=NCCN1: 99.9%
CCCCC(=O)O[C@]1(C(=O)CO)[C@@H](C)C[C@H]2[C@@H]3CCC4=CC(=O)C=C[C@]4(C)[C@@]3(F)[C@@H](O)C[C@@]21C: 77.1%
NCCS: 99.9%
CC=CC(=O)N(CC)c1ccccc1C: 124%
Cc1cc(O)cc(C)c1Cl: 109%

Sample 3
Compound: CO[C@H]1CC[C@H](CNc2ccc(S(=O)(=O)NC(=O)c3ccc(N4CCN(CC5=C(c6ccc(Cl)cc6)CC(C)(C)CC5)CC4)cc3Oc3cnc4[nH]ccc4c3)cc2[N+](=O)[O-])CC1
Method: competition with immobilised ligand
Tested at: 1 µM
Measurement: remaining binding
MARK1 (Homo sapiens, UniProt Q9P0L2); cell-free assay: 74%
BRSK2 (Homo sapiens, UniProt Q8IWQ3); cell-free assay: 78%
PIP5K1C (Homo sapiens, UniProt O60331); cell-free assay: 100%
CSNK1G3 (Homo sapiens, UniProt Q9Y6M4); cell-free assay: 91%
ALK (Homo sapiens, UniProt Q9UM73, L1196M); cell-free assay: 100%
TLK2 (Homo sapiens, UniProt Q86UE8); cell-free assay: 87%
ACVRL1 (Homo sapiens, UniProt P37023); cell-free assay: 72%
Tyrosine-protein kinase ABL1, non-phosphorylated (ABL1, Homo sapiens, UniProt P00519, F317I); binding: 100%

Single results of other studies
CC(C)n1cnc(-c2ccc(F)cc2)c1-c1ncc(C(=O)Nc2ccc(N3CCN(C)CC3)cc2)[nH]1 — patients with Arthritis TEAE (phase 2a clinical trial; patients with idiopathic pulmonary fibrosis; dose not given, all compound arms pooled): 0%

For quick reference, copied from above (sample 3):
ALK (Homo sapiens, UniProt Q9UM73, L1196M); cell-free assay: 100%
